Experimental data pooled from the literature.
Each line is one published result; not all experiments were run side by side. ± gives the spread as reported. ≈ marks a conversion by molar mass, not a printed value.
Organism: Escherichia coli

| Structure (SMILES) | assay | system | setting | scale | endpoint | result |
| --- | --- | --- | --- | --- | --- | --- |
| OC[C@H]1O[C@@H]2O[C@H]3[C@H](O)[C@@H](O)[C@@H](O[C@H]4[C@H](O)[C@@H](O)[C@@H](O[C@H]5[C@H](O)[C@@H](O)[C@@H](O[C@H]6[C@H](O)[C@@H](O)[C@@H](O[C@H]7[C@H](O)[C@@H](O)[C@@H](O[C@H]1[C@H](O)[C@H]2O)O[C@@H]7CO)O[C@@H]6CO)O[C@@H]5CO)O[C@@H]4CO)O[C@@H]3CO | LuxR reporter, antagonist | DH5α sensor strain | 1 µM, with: OHHL 200 nM |  | inhibition | -1 ± 1% |
| CC[C@H](C)[C@H](NC(=O)[C@H](CCCN)NC(=O)[C@H](CC(N)=O)NC(=O)[C@H](Cc1c[nH]c2ccccc12)NC(=O)[C@H](Cc1ccccc1)NC(=O)[C@H](CCCN)NC(=O)[C@H](CCCCNC(=N)N)NC(=O)[C@H](CC(C)C)NC(=O)[C@H](Cc1c[nH]c2ccccc12)NC(=O)[C@H](CCCN)NC(=O)[C@H](CCCCNC(=N)N)NC(=O)[C@H](CC(C)C)NC(=O)CNC(C)=O)C(=O)N[C@@H](CCCN)C(=O)N[C@@H](CCCCNC(=N)N)C(N)=O |  | ATCC 25922 | concentration not given, with: NaCl 150 mM | relative to: no added salt | MIC fold change | 2 fold |
| N=C(N)NCCC[C@@H]1NC(=O)[C@H](CCCNC(=N)N)NC(=O)[C@@H](CCCNC(=N)N)NC(=O)[C@@H](CCCNC(=N)N)NC(=O)[C@@H](C(c2ccccc2)c2ccccc2)NC(=O)[C@H](Cc2c[nH]c3ccccc23)NC(=O)[C@@H](C(c2ccccc2)c2ccccc2)NC1=O |  | ATCC BAA-2452 | 1 x MIC, 24 h, preformed biofilm |  | biofilm mass reduction | 41 to 49% |
| O=c1c(O)ccc(Br)cc1O | microbial growth, broth dilution | ATCC35218 |  |  | MIC80 | 19.8 µM (≈ 4.3 µg/mL) |
| O=C(CCCc1cn(C[C@H]2O[C@@H]3O[C@H]4[C@H](O)[C@@H](O)[C@@H](O[C@H]5[C@H](O)[C@@H](O)[C@@H](O[C@H]6[C@H](O)[C@@H](O)[C@@H](O[C@H]7[C@H](O)[C@@H](O)[C@@H](O[C@H]8[C@H](O)[C@@H](O)[C@@H](O[C@H]9[C@H](O)[C@@H](O)[C@@H](O[C@H]2[C@H](O)[C@H]3O)O[C@@H]9CO)O[C@@H]8CO)O[C@@H]7CO)O[C@@H]6CO)O[C@@H]5CO)O[C@@H]4CO)nn1)N[C@H]1CCOC1=O | LuxR reporter, antagonist | DH5α sensor strain | 100 µM, with: OHHL 200 nM |  | inhibition | 19 ± 4% |
| CC(CCCOC(=O)CCC[N+](C)(C)C)C1CCC2C3C(OC(=O)CCC[N+](C)(C)C)CC4CC(OC(=O)CCC[N+](C)(C)C)CCC4(C)C3CC(OC(=O)CCC[N+](C)(C)C)C12C (stereo not drawn) | microbial growth, disc diffusion | ATCC25922 | 125 µg/disc, 24 h |  | inhibition zone | 8 mm |
| O=C(CCCc1cn(C[C@H]2O[C@@H]3O[C@H]4[C@H](O)[C@@H](O)[C@@H](O[C@H]5[C@H](O)[C@@H](O)[C@@H](O[C@H]6[C@H](O)[C@@H](O)[C@@H](O[C@H]7[C@H](O)[C@@H](O)[C@@H](O[C@H]8[C@H](O)[C@@H](O)[C@@H](O[C@H]9[C@H](O)[C@@H](O)[C@@H](O[C@H]2[C@H](O)[C@H]3O)O[C@@H]9Cn2cc(CCCC(=O)N[C@H]3CCOC3=O)nn2)O[C@@H]8Cn2cc(CCCC(=O)N[C@H]3CCOC3=O)nn2)O[C@@H]7Cn2cc(CCCC(=O)N[C@H]3CCOC3=O)nn2)O[C@@H]6Cn2cc(CCCC(=O)N[C@H]3CCOC3=O)nn2)O[C@@H]5Cn2cc(CCCC(=O)N[C@H]3CCOC3=O)nn2)O[C@@H]4Cn2cc(CCCC(=O)N[C@H]3CCOC3=O)nn2)nn1)N[C@H]1CCOC1=O | LuxR reporter, antagonist | DH5α sensor strain | 10 µM, with: OHHL 200 nM |  | inhibition | 36 ± 6% |
| Cc1cccc(C(=O)Sc2cccccc2=O)c1 | microbial growth, broth dilution | ATCC35218 |  |  | MIC80 | 100 µM (≈ 25.6 µg/mL) |
| CCCC[C@H](NC(=O)[C@@H](N)CCCN)C(=O)N[C@@H](CC1CCCCC1)C(=O)N[C@H](C(=O)N[C@H](Cc1ccccc1)C(=O)N[C@@H](Cc1cn(Cc2ccccc2)cn1)C(N)=O)[C@@H](C)CC | bacterial growth | ATCC 35218 |  |  | IC50 | > 20 µg/mL |
| CC(C)C1=CC2=CCC3C(C)(C(=O)OCCC[N+](C)(C)C)CCCC3(C)C2CC1 (stereo not drawn) | microbial growth, disc diffusion | ATCC25922 | 15.6 µg/disc, 24 h |  | inhibition zone | 9 mm |
| CCCCCCCC(=O)Oc1c(C)c(OC)c2c(c1C)OC(=O)[C@@H](CCCCCC)[C@]2(O)/C=C/c1ccccc1 (racemic) | microbial killing, broth dilution | ATCC25922 |  |  | MBC | > 5000 µg/mL |
| COc1ccc2cc3[n+](cc2c1OC)CCc1cc2c(cc1-3)OCO2.[Cl][Fe-]([Cl])([Cl])[Cl] |  |  | 24 h, 37 °C |  | MIC50 | 133 µM |
| COc1c(C)c(OC(=O)c2ccccc2)c(C)c(OC(=O)c2ccccc2)c1C(=O)/C=C/c1ccccc1 | microbial killing, broth dilution | ATCC25922 |  |  | MBC | > 5000 µg/mL |
| O=C(CCCc1cn(C[C@H]2O[C@@H]3O[C@H]4[C@H](O)[C@@H](O)[C@@H](O[C@H]5[C@H](O)[C@@H](O)[C@@H](O[C@H]6[C@H](O)[C@@H](O)[C@@H](O[C@H]7[C@H](O)[C@@H](O)[C@@H](O[C@H]8[C@H](O)[C@@H](O)[C@@H](O[C@H]2[C@H](O)[C@H]3O)O[C@@H]8Cn2cc(CCCC(=O)N[C@H]3CCOC3=O)nn2)O[C@@H]7Cn2cc(CCCC(=O)N[C@H]3CCOC3=O)nn2)O[C@@H]6Cn2cc(CCCC(=O)N[C@H]3CCOC3=O)nn2)O[C@@H]5Cn2cc(CCCC(=O)N[C@H]3CCOC3=O)nn2)O[C@@H]4Cn2cc(CCCC(=O)N[C@H]3CCOC3=O)nn2)nn1)N[C@H]1CCOC1=O | LuxR reporter, antagonist | DH5α sensor strain | 20 µM, with: OHHL 200 nM |  | inhibition | 5 ± 4% |
| Cc1ccnc(-c2cc(C(=O)NCCCCCC(=O)N[C@@H](CCCNC(=N)N)C(=O)N[C@@H](Cc3c[nH]c4ccccc34)C(=O)N[C@@H](CCCNC(=N)N)C(=O)N[C@@H](Cc3c[nH]c4ccccc34)C(=O)N[C@@H](CCCNC(=N)N)C(=O)N[C@@H](Cc3c[nH]c4ccccc34)C(N)=O)ccn2)c1 |  | susceptible | 16 µM, light irradiation |  | reduction in viable count | ≥ 3 log10 CFU |
| COc1c(C)c(OC(=O)c2ccc3ccccc3c2)c(C)c(O)c1C(=O)/C=C/c1ccccc1 | microbial killing, broth dilution | ATCC25922 |  |  | MBC | > 5000 µg/mL |
| CC[C@H](C)[C@H](NC(=O)[C@H](CC1CCCCC1)NC(=O)[C@@H](CC(C)C)NC(=O)[C@@H](N)CCCN)C(=O)N[C@H](Cc1ccccc1)C(=O)N[C@@H](Cc1cn(Cc2ccccc2)cn1)C(N)=O | bacterial growth | ATCC 35218 |  |  | IC50 | > 20 µg/mL |
| CO[C@@H]1[C@@H](OC)[C@H]2O[C@H]3[C@H](OC)[C@@H](OC)[C@@H](O[C@H]4[C@H](OC)[C@@H](OC)[C@@H](O[C@H]5[C@H](OC)[C@@H](OC)[C@@H](O[C@H]6[C@H](OC)[C@@H](OC)[C@@H](O[C@H]7[C@H](OC)[C@@H](OC)[C@@H](O[C@H]8[C@H](OC)[C@@H](OC)[C@@H](O[C@@H]1[C@@H](Cn1cc(CCCC(=O)N[C@H]9CCOC9=O)nn1)O2)O[C@@H]8Cn1cc(CCCC(=O)N[C@H]2CCOC2=O)nn1)O[C@@H]7Cn1cc(CCCC(=O)N[C@H]2CCOC2=O)nn1)O[C@@H]6Cn1cc(CCCC(=O)N[C@H]2CCOC2=O)nn1)O[C@@H]5Cn1cc(CCCC(=O)N[C@H]2CCOC2=O)nn1)O[C@@H]4Cn1cc(CCCC(=O)N[C@H]2CCOC2=O)nn1)O[C@@H]3Cn1cc(CCCC(=O)N[C@H]2CCOC2=O)nn1 | LuxR reporter, antagonist | DH5α sensor strain | 40 µM, with: OHHL 200 nM |  | inhibition | 23% |
| [Cl-].[Cl][Ru-4]123([n+]4ccccc4-c4cc(-c5ccccc5)cc([n+]41)-c1cccc[n+]12)[n+]1ccc(-c2ccccc2)c2ccc4c(-c5ccccc5)cc[n+]3c4c21 | ICP-MS |  | 20 µM, 24 h |  | cellular uptake | 11% |
| CC(CCCOC(=O)CCC[N+](C)(C)C)C1CCC2C3CCC4CC(OC(=O)CCC[N+](C)(C)C)CCC4(C)C3CCC12C (stereo not drawn) | microbial growth, disc diffusion | ATCC25922 | 125 µg/disc, 24 h |  | inhibition zone | 14 mm |
| CO[C@@H]1[C@@H](OC)[C@H]2O[C@H]3[C@H](OC)[C@@H](OC)[C@@H](O[C@H]4[C@H](OC)[C@@H](OC)[C@@H](O[C@H]5[C@H](OC)[C@@H](OC)[C@@H](O[C@H]6[C@H](OC)[C@@H](OC)[C@@H](O[C@H]7[C@H](OC)[C@@H](OC)[C@@H](O[C@@H]1[C@@H](Cn1cc(CCCC(=O)N[C@H]8CCOC8=O)nn1)O2)O[C@@H]7Cn1cc(CCCC(=O)N[C@H]2CCOC2=O)nn1)O[C@@H]6Cn1cc(CCCC(=O)N[C@H]2CCOC2=O)nn1)O[C@@H]5Cn1cc(CCCC(=O)N[C@H]2CCOC2=O)nn1)O[C@@H]4Cn1cc(CCCC(=O)N[C@H]2CCOC2=O)nn1)O[C@@H]3Cn1cc(CCCC(=O)N[C@H]2CCOC2=O)nn1 | LuxR reporter, antagonist | DH5α sensor strain | 100 µM, with: OHHL 200 nM |  | inhibition | 29 ± 4% |

For quick reference, copied from above:
| Structure (SMILES) | assay | system | setting | scale | endpoint | result |
| --- | --- | --- | --- | --- | --- | --- |
| CC(CCCOC(=O)CCC[N+](C)(C)C)C1CCC2C3CCC4CC(OC(=O)CCC[N+](C)(C)C)CCC4(C)C3CCC12C (stereo not drawn) | microbial growth, disc diffusion | ATCC25922 | 125 µg/disc, 24 h |  | inhibition zone | 14 mm |
| CO[C@@H]1[C@@H](OC)[C@H]2O[C@H]3[C@H](OC)[C@@H](OC)[C@@H](O[C@H]4[C@H](OC)[C@@H](OC)[C@@H](O[C@H]5[C@H](OC)[C@@H](OC)[C@@H](O[C@H]6[C@H](OC)[C@@H](OC)[C@@H](O[C@H]7[C@H](OC)[C@@H](OC)[C@@H](O[C@@H]1[C@@H](Cn1cc(CCCC(=O)N[C@H]8CCOC8=O)nn1)O2)O[C@@H]7Cn1cc(CCCC(=O)N[C@H]2CCOC2=O)nn1)O[C@@H]6Cn1cc(CCCC(=O)N[C@H]2CCOC2=O)nn1)O[C@@H]5Cn1cc(CCCC(=O)N[C@H]2CCOC2=O)nn1)O[C@@H]4Cn1cc(CCCC(=O)N[C@H]2CCOC2=O)nn1)O[C@@H]3Cn1cc(CCCC(=O)N[C@H]2CCOC2=O)nn1 | LuxR reporter, antagonist | DH5α sensor strain | 100 µM, with: OHHL 200 nM |  | inhibition | 29 ± 4% |
